Measurements pooled from the literature.
Protocols differ between the studies behind these lines. Numbers after ± are the reported error.

SMILES	assay	system	setting	tissue uptake
CN1C(=O)[C@@H](Cc2ccc(O)c(I)c2)NC(=O)CNC(=O)[C@H](Cc2ccc3ccccc3c2)NC(=O)[C@H](CCCNC(=N)N)NC(=O)[C@H]1CCCNC(=O)c1ccc(CNC(=O)CN2CCN(CC(=O)O)CCN(CC(=O)O)CCN(CC(=O)O)CC2)cc1 [lutetium-177 labelled]	measured: 177Lu radioactivity	female CB-17 SCID mice, Daudi xenograft, blood	intravenous, 0.16 nmol per mouse, 48 h	0.02 ± 0.001 %ID/g
N=C(N)NCCC[C@@H]1NC(=O)[C@H](CCCCNC(=O)CON=C[C@H](F)[C@@H](O)[C@H](O)[C@H](O)CO)NC(=O)[C@@H](Cc2ccc(O)cc2)NC(=O)[C@H](CC(=O)O)NC(=O)CNC1=O [fluorine-18 labelled]	–	nude mice U-87 MG tumour, kidney	intravenous, 2 h	16.1 ± 13 %ID/g
O=C([O-])CN1CCN(CC(=O)[O-])CCN(CC(=O)[O-])CCN(CC(=O)[O-])CC1.[64Cu+2]	–	healthy athymic nude mice, stomach	intravenous, 1 h	0.7 %ID/g
O=C([O-])CN1CCN(CC(=O)[O-])CCN(CC(=O)NC[C@H]2CC[C@H](C(=O)N[C@H](Cc3cnc4ccccc4c3)C(=O)NCCCC[C@H](NC(=O)N[C@@H](CCC(=O)O)C(=O)O)C(=O)O)CC2)CCN(CC(=O)[O-])CC1.[64Cu+2]	ex vivo gamma counting	22Rv1 tumour-bearing mice, liver	intravenous, 0.74 MBq, 24 h	16.8 ± 3.02 %ID/g
CC(F)C(=O)NC[C@@H]1O[C@H](C(=O)NCCCC[C@@H]2NC(=O)[C@@H](Cc3ccccc3)NC(=O)[C@H](CC(=O)O)NC(=O)CNC(=O)[C@H](CCCNC(=N)N)NC2=O)[C@H](O)[C@H](O)[C@H]1O (stereo partly shown) [fluorine-18 labelled]	small-animal PET	female athymic nude mice, U-87 MG xenograft, kidney	intravenous, 3.7 MBq, 120 min	0.71 ± 0.04 %ID/g
NC12CNCCNCC(NCc3ccc(CNC(=O)CCCC(=O)NCc4ccc(-c5nncnn5)cc4)cc3)(CNCCNC1)CNCCNC2.[64Cu+2]	–	athymic nude mice, SW1222 xenograft, large intestine with contents	1 h, pretargeting with huA33-TCO, 24 h interval	0.21 ± 0.09 %ID/g
CCCC[C@H](NC(=O)CNC(=O)CNC(=O)CN1CCN(CC(=O)O)CCN(CC(=O)O)CCN(CC(=O)O)CC1)C(=O)N[C@H]1CC(=O)NCCCC[C@@H](C(N)=O)NC(=O)[C@H](Cc2c[nH]c3ccccc23)NC(=O)[C@H](CCCNC(=N)N)NC(=O)[C@@H](Cc2ccccc2)NC(=O)[C@H](Cc2c[nH]cn2)NC1=O [lead-203 labelled]	–	normal C57 mice, intestine	intravenous, 0.056 MBq, 24 h	1.86 ± 1.02 %ID
N=C(N)NCCC[C@H](NC(=O)[C@@H]1CSSC[C@H](NC(=O)[C@H](Cc2ccc3ccccc3c2)NC(=O)[C@H](CCCNC(=N)N)NC(=O)[C@H](CCCNC(=N)N)NC(=S)Nc2ccc(C[C@H]3CN(CC(=O)O)CCN(CC(=O)O)CCN3CC(=O)O)cc2)C(=O)N[C@@H](Cc2ccc(O)cc2)C(=O)N[C@@H](CCCNC(N)=O)C(=O)N[C@@H](CCCCN)C(=O)N[C@H](CCCCN)C(=O)N2CCC[C@H]2C(=O)N[C@@H](Cc2ccc(O)cc2)C(=O)N[C@@H](CCCNC(=N)N)C(=O)N[C@@H](CCCNC(N)=O)C(=O)N1)C(N)=O [copper-64 labelled]	PET	tumour-bearing mice, blood	100 µCi, 4 h	0.13 ± 0.02 %ID/g
CC(C)[C@H](NC(=O)[C@@H]1CCCN1C(=O)[C@H](CCCNC(=N)N)NC(=O)[C@H](CS)NC(=O)[C@H](Cc1c[nH]c2ccccc12)NC(=O)[C@H](CCCNC(=N)N)NC(=O)[C@@H](Cc1ccccc1)NC(=O)[C@H](Cc1c[nH]cn1)NC(=O)[C@H](CCC(=O)O)NC(=O)[C@H](CS)NC(=O)[C@H](CS)NC(=O)COCCOCCNC(=O)[C@@H]1CC(=O)N[C@@H](CCCNC(=N)N)C(=O)NCC(=O)N[C@@H](CC(=O)O)C(=O)N[C@H](Cc2ccc(O)cc2)C(=O)N1)C(N)=O [technetium-99m labelled]	–	nude mice M21 xenograft, intestines	intravenous, 0.037 MBq, 2 h	1.66 ± 0.37 %ID
N=C(N)NCCC[C@H](NC(=O)[C@@H]1CSSC[C@H](NC(=O)[C@H](Cc2ccc3ccccc3c2)NC(=O)[C@H](CCCNC(=N)N)NC(=O)[C@H](CCCNC(=N)N)NC(=O)CN2CCN(CC(=O)O)CCN(CC(=O)O)CCN(CC(=O)O)CC2)C(=O)N[C@@H](Cc2ccc(O)cc2)C(=O)N[C@@H](CCCNC(N)=O)C(=O)N[C@@H](CCCCN)C(=O)N[C@H](CCCCN)C(=O)N2CCC[C@H]2C(=O)N[C@@H](Cc2ccc(O)cc2)C(=O)N[C@@H](CCCNC(=N)N)C(=O)N[C@@H](CCCNC(N)=O)C(=O)N1)C(N)=O [copper-64 labelled]	–	female athymic nude mice, blood	intravenous, 50 µCi, 4 h	0.34 ± 0.02 %ID/g
CCCC[C@H](NC(=O)CN1CCC(NC(=O)CN2CCN(CC(=O)O)CCN(CC(=O)O)CCN(CC(=O)O)CC2)CC1)C(=O)N[C@H]1CC(=O)NCCCC[C@@H](C(N)=O)NC(=O)[C@H](Cc2c[nH]c3ccccc23)NC(=O)[C@H](CCCNC(=N)N)NC(=O)[C@@H](Cc2ccccc2)NC(=O)[C@H](Cc2c[nH]cn2)NC1=O [gallium-68 labelled]	–	C57BL/6J mice male B16-F10 tumour, lungs	1 h post injection, unblocked	0.6 ± 0.2 %ID/g
CCCC[C@H](NC(=O)CNC(=O)CNC(=O)CN1CCN(CC(=O)O)CCN(CC(=O)O)CCN(CC(=O)O)CC1)C(=O)N[C@H]1CC(=O)NCCCC[C@@H](C(N)=O)NC(=O)[C@H](Cc2c[nH]c3ccccc23)NC(=O)[C@H](CCCNC(=N)N)NC(=O)[C@@H](Cc2ccccc2)NC(=O)[C@H](Cc2c[nH]cn2)NC1=O [gallium-67 labelled]	–	female C57 mice, B16/F1 melanoma, spleen	intravenous, 0.037 MBq, 4 h	0.64 ± 0.06 %ID/g
CC(F)C(=O)NC[C@@H]1O[C@H](C(=O)NCCCC[C@@H]2NC(=O)[C@@H](Cc3ccc(O)cc3)NC(=O)[C@H](CC(=O)O)NC(=O)CNC(=O)[C@H](CCCNC(=N)N)NC2=O)[C@H](O)[C@H](O)[C@H]1O (stereo partly shown) [fluorine-18 labelled]	small-animal PET	female athymic nude mice, U-87 MG xenograft, kidney	intravenous, 3.7 MBq, 60 min	0.96 ± 0.15 %ID/g
O=C([O-])c1cccc(CN(CCN(Cc2cn(Cc3ccccc3)nn2)Cc2cccc(C(=O)[O-])n2)Cc2cn(Cc3ccccc3)nn2)n1.[64Cu+2]	–	healthy athymic nude mice, kidney	intravenous, 15 min	8.9 %ID/g
CCCC[C@@H]1NC(=O)[C@@H](NC(=O)[C@H](CCC(=O)O)NC(=O)CNC(=O)CN2CCN(CC(=O)O)CCN(CC(=O)O)CCN(CC(=O)O)CC2)CCCCNC(=O)C[C@@H](C(N)=O)NC(=O)[C@H](C(C)C)NC(=O)[C@@H]2CCCN2C(=O)[C@H](CCCNC(=N)N)NC(=O)CNC(=O)[C@H](Cc2c[nH]c3ccccc23)NC(=O)[C@H](CCCNC(=N)N)NC(=O)[C@@H](Cc2ccccc2)NC(=O)[C@H](Cc2c[nH]cn2)NC(=O)[C@H](CCC(=O)O)NC1=O [gallium-67 labelled]	–	C57 mice, B16/F10 lung metastases, kidneys	intravenous, 0.037 MBq/mouse, 4 h	28.8 ± 4.3 %ID/g
CC(F)C(=O)NCCOCCOCCOCC(=O)N[C@@H](CCC(=O)NCCCC[C@@H]1NC(=O)[C@@H](Cc2ccc(O)cc2)NC(=O)[C@H](CC(=O)O)NC(=O)CNC(=O)[C@H](CCCNC(=N)N)NC1=O)C(=O)NCCCC[C@@H]1NC(=O)[C@@H](Cc2ccc(O)cc2)NC(=O)[C@H](CC(=O)O)NC(=O)CNC(=O)[C@H](CCCNC(=N)N)NC1=O (stereo partly shown) [fluorine-18 labelled]	small-animal PET	female athymic nude mice, U-87 MG xenograft, kidney	intravenous, 3.7 MBq, 60 min	2.88 ± 0.42 %ID/g
CC(C)[C@H](NC(=O)[C@@H]1CCCN1C(=O)[C@H](CCCNC(=N)N)NC(=O)[C@H](CS)NC(=O)[C@H](Cc1c[nH]c2ccccc12)NC(=O)[C@H](CCCNC(=N)N)NC(=O)[C@@H](Cc1ccccc1)NC(=O)[C@H](Cc1c[nH]cn1)NC(=O)[C@H](CCC(=O)O)NC(=O)[C@H](CS)NC(=O)[C@H](CS)NC(=O)[C@@H]1CC(=O)N[C@@H](CCCNC(=N)N)C(=O)NCC(=O)N[C@@H](CC(=O)O)C(=O)N[C@H](Cc2ccc(O)cc2)C(=O)N1)C(N)=O [technetium-99m labelled]	–	C57 mice B16/F1 melanoma female, brain	iv, 2 h, added: NDP-MSH 10 µg co-injected	0.05 ± 0.02 %ID/g
CC(F)C(=O)NC[C@@H]1O[C@H](C(=O)N[C@@H](CCC(=O)NCCCC[C@@H]2NC(=O)[C@@H](Cc3ccc(O)cc3)NC(=O)[C@H](CC(=O)O)NC(=O)CNC(=O)[C@H](CCCNC(=N)N)NC2=O)C(=O)NCCCC[C@@H]2NC(=O)[C@@H](Cc3ccc(O)cc3)NC(=O)[C@H](CC(=O)O)NC(=O)CNC(=O)[C@H](CCCNC(=N)N)NC2=O)[C@H](O)[C@H](O)[C@H]1O (stereo partly shown) [fluorine-18 labelled]	small-animal PET	female athymic nude mice, U-87 MG xenograft, kidney	intravenous, 3.7 MBq, 120 min	1.68 ± 0.32 %ID/g
CCCC[C@H](NC(=O)CNC(=O)CNC(=O)CN1CCN(CC(=O)O)CCN(CC(=O)O)CC1)C(=O)N[C@H]1CC(=O)NCCCC[C@@H](C(N)=O)NC(=O)[C@H](Cc2c[nH]c3ccccc23)NC(=O)[C@H](CCCNC(=N)N)NC(=O)[C@@H](Cc2ccccc2)NC(=O)[C@H](Cc2c[nH]cn2)NC1=O [gallium-67 labelled]	–	female C57 mice, B16/F1 melanoma, muscle	intravenous, 0.037 MBq, 4 h	0.33 ± 0.11 %ID/g

A few entries again:
SMILES	assay	system	setting	tissue uptake
O=C([O-])CN1CCN(CC(=O)[O-])CCN(CC(=O)[O-])CCN(CC(=O)[O-])CC1.[64Cu+2]	–	healthy athymic nude mice, stomach	intravenous, 1 h	0.7 %ID/g
N=C(N)NCCC[C@H](NC(=O)[C@@H]1CSSC[C@H](NC(=O)[C@H](Cc2ccc3ccccc3c2)NC(=O)[C@H](CCCNC(=N)N)NC(=O)[C@H](CCCNC(=N)N)NC(=S)Nc2ccc(C[C@H]3CN(CC(=O)O)CCN(CC(=O)O)CCN3CC(=O)O)cc2)C(=O)N[C@@H](Cc2ccc(O)cc2)C(=O)N[C@@H](CCCNC(N)=O)C(=O)N[C@@H](CCCCN)C(=O)N[C@H](CCCCN)C(=O)N2CCC[C@H]2C(=O)N[C@@H](Cc2ccc(O)cc2)C(=O)N[C@@H](CCCNC(=N)N)C(=O)N[C@@H](CCCNC(N)=O)C(=O)N1)C(N)=O [copper-64 labelled]	PET	tumour-bearing mice, blood	100 µCi, 4 h	0.13 ± 0.02 %ID/g
CCCC[C@H](NC(=O)CNC(=O)CNC(=O)CN1CCN(CC(=O)O)CCN(CC(=O)O)CCN(CC(=O)O)CC1)C(=O)N[C@H]1CC(=O)NCCCC[C@@H](C(N)=O)NC(=O)[C@H](Cc2c[nH]c3ccccc23)NC(=O)[C@H](CCCNC(=N)N)NC(=O)[C@@H](Cc2ccccc2)NC(=O)[C@H](Cc2c[nH]cn2)NC1=O [gallium-67 labelled]	–	female C57 mice, B16/F1 melanoma, spleen	intravenous, 0.037 MBq, 4 h	0.64 ± 0.06 %ID/g
